Published values collected from several papers.
Compare with care: the assays were run in different laboratories. ± marks the error that the study gave.
NR3C1: Glucocorticoid receptor (NR3C1, Homo sapiens, UniProt P04150)

Chains of the proteins cited; added tags and fusions are not shown.
UniProt P04150, whole entry: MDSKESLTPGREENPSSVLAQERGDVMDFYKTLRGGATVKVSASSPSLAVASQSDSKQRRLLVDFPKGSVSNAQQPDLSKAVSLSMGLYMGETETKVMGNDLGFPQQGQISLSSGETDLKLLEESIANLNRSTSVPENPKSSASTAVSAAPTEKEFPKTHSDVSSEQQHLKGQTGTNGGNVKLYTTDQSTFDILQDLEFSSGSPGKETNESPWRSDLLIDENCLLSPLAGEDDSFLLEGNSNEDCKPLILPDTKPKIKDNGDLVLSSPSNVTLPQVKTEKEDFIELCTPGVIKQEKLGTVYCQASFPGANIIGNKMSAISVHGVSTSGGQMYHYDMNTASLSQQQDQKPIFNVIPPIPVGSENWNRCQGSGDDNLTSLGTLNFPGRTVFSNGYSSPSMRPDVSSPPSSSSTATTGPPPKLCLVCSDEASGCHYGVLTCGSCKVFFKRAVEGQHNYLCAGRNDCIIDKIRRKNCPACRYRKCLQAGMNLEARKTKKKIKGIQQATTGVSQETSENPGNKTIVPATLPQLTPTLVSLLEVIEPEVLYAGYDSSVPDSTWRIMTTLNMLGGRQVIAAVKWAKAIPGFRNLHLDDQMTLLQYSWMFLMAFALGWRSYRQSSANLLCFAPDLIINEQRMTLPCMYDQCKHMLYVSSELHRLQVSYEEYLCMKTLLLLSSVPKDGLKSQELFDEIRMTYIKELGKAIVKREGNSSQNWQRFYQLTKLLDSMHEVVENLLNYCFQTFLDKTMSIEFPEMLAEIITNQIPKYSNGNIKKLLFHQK
UniProt P10636, whole entry, looked up: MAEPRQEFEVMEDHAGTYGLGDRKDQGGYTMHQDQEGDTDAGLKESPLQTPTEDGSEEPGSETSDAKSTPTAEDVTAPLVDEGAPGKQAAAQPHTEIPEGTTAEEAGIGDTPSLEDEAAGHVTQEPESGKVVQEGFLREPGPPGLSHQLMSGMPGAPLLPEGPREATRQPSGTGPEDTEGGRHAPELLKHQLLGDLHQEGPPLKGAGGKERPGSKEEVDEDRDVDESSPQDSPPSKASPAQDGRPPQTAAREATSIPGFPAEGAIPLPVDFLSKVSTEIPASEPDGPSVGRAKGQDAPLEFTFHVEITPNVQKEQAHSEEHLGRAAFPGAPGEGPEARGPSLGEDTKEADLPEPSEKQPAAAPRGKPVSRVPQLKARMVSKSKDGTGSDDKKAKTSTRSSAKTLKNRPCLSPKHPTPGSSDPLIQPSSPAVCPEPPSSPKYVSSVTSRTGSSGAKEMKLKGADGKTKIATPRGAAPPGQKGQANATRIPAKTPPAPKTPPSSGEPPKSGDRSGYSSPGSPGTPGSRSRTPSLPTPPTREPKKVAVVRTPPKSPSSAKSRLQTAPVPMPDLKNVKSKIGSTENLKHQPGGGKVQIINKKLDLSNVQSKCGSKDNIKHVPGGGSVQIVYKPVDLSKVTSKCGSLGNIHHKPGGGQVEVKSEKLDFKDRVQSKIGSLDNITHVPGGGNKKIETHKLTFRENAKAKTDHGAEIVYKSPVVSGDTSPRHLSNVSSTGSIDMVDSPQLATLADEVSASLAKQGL
UniProt Q15059, whole entry, looked up: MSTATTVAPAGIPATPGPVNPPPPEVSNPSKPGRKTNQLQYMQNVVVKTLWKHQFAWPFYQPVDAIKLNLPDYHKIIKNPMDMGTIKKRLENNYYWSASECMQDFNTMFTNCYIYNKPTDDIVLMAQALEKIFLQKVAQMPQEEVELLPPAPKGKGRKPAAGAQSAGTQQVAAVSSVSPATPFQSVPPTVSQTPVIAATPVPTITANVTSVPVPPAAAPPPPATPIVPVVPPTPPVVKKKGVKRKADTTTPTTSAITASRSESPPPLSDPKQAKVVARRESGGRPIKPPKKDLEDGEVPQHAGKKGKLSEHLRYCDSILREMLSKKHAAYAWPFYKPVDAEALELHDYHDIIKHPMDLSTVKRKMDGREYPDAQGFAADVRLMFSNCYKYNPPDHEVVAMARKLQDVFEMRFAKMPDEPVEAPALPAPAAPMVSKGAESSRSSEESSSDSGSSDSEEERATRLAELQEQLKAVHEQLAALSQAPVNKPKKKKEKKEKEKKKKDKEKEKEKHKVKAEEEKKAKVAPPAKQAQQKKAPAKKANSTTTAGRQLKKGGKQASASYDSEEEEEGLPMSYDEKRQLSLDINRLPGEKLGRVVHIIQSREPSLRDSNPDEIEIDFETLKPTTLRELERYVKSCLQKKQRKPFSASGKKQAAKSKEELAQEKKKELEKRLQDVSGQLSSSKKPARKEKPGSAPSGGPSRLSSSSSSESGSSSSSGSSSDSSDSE
UniProt Q12851, whole entry: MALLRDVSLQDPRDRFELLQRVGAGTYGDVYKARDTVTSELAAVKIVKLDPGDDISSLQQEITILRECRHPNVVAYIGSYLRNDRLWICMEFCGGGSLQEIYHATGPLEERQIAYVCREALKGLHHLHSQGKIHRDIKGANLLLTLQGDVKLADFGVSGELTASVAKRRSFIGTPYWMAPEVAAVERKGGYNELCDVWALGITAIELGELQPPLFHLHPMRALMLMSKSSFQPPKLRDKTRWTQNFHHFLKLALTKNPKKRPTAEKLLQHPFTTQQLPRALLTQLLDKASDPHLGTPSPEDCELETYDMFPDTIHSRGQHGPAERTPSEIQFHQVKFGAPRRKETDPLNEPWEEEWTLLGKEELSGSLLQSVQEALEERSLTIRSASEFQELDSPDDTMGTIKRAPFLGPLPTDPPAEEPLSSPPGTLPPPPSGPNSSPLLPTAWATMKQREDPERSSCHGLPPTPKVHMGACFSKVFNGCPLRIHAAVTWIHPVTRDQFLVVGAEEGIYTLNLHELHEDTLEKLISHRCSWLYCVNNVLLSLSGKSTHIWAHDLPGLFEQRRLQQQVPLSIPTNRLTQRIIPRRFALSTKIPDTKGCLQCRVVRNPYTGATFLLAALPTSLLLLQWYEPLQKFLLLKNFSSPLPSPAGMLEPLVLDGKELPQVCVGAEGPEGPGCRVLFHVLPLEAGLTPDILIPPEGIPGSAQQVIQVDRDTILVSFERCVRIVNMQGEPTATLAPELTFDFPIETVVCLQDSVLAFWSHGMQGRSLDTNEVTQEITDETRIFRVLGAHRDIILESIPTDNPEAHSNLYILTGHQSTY

SMILES	target or system	assay	test system	conditions	scale	endpoint	value
COc1ccc(N2C(=O)N(c3c(C)cccc3Cl)Cc3cnc(Nc4ccc(N5CCN(C)CC5)cc4OC)nc32)nc1			bone marrow-derived dendritic cells, mouse			cytotoxic concentration	> 5 µM
CCN(CC)C(=O)Oc1ccc(C(=O)Nc2cccc3cc[nH]c23)cc1		nephelometry	aqueous solution	3 h, room temperature		solubility	70 µM
Fc1cc(-c2ccc3c(n2)[nH]c2ccncc23)ccn1 [isotope labelled]	Microtubule-associated protein tau, paired helical filaments (MAPT, Homo sapiens, UniProt P10636)	radioligand binding	PHF tau brain homogenate	72.89 nM	higher = more binding	specific binding	20.1 a.u.
COc1cc(OC)c(NC(=O)CSc2nnc(-c3ccccc3)n2C)cc1Cl			octanol/buffer	pH 11		logD	3.22
C=C1C(=O)[C@](C)(C(=O)OC)[C@H](CCc2cn(Cc3ccc(F)cc3F)nn2)O[C@@H]1C		thiol reactivity, HPLC		1 µM, added: 5 mM N-acetylcysteine		half-life	0.7 h
CC[C@@H]1C(=O)N(C)c2cnc(Nc3ccc(C(=O)NC4CCN(C)CC4)cc3OC)nc2N1C1CCCC1	Bromodomain-containing protein 3, BD1 (BRD3, Homo sapiens, UniProt Q15059)			10 µM		delta Tm	4.88 ± 0.25 °C
C[C@H]1CC[C@@]2(NC1)O[C@@H]1C[C@@H]3[C@@H]4CC=C5C[C@@H](O)CC[C@]5(C)[C@@H]4CC[C@]3(C)[C@H]1[C@@H]2C	NR3C1	nuclear translocation, agonist, enzyme fragment complementation				EC50	> 9 µM
COc1cc(CC(=O)NCC(NC(=O)C(CCCNC(=O)c2cccc(I)c2)NC(=O)C(Cc2ccc(C(F)(F)P(=O)(O)O)cc2)NC(=O)c2ccc(C)c(Br)c2)C(N)=O)ccc1O (centres unmarked)		HPLC-MS/MS	mouse, plasma	intraperitoneal, 20 mg/kg		Vdss/F	0.08 L
CCc1c(-c2ccccc2)nn2c(=O)cc(-c3cccc(C(=O)O)c3)[nH]c12			mouse liver microsomes	1 µM, 30 min		remaining compound	~100%
C[C@H]1CCCN1Cc1cc2cnc(NC(=O)c3ccc4c(cnn4C)c3)cc2[nH]1			healthy C57BL/6 mouse	dose not given, 80 days after treatment end	baseline: vehicle	blood counts and marrow cellularity	no effect
CS(=O)(=O)c1ccc(NC(=O)CSc2nnc(-c3ccccc3F)n2-c2ccccc2)cc1			aqueous buffer	pH 7.4		solubility	154 µg/mL
CN1CCN(c2nc(NCc3nc4cc(Cl)ccc4[nH]3)c3ncn(-c4ccoc4)c3n2)CC1			DMEM with 10% FBS			solubility	18 µM
C[C@]12CC[C@H](O)CC1=CC[C@H]1[C@@H]2CC[C@@]2(C)C(N(CCO)CCO)CC[C@@H]12 (some centres unmarked)	NR3C1	nuclear translocation, agonist, enzyme fragment complementation				EC50	> 9 µM
CCN1CCN(Cc2ccc(NC(=O)c3ccc(C)c(Oc4ncnc5cc(OC)c(OC)cc45)c3)cc2C(F)(F)F)CC1	MAP4K2 (Homo sapiens, UniProt Q12851)	KINOMEscan competition binding		1.0 µM		residual probe binding	0.3%
Cc1cccc(NC(=O)c2nn(Cc3cnc[nH]3)c3c2CN(C(=O)c2ccc[nH]2)CC3)c1			culture medium			stability	≥ 14 days
O=C(Nc1cccnn1)N1CC(Oc2ccc(-c3ccccc3F)cn2)C1			healthy humans	oral, 5 to 300 mg, single dose, range of medians		Tmax	1.5 to 2.5 h
Cc1cc(C)c(CNC(=O)c2cc(-c3ccc(N4CCN(CCNC(=O)CC56CC7CC(CC(C7)C5)C6)CC4)nc3)cc3c2cnn3C(C)C)c(=O)[nH]1			mouse Swiss albino male, plasma	p.o., 150 mg/kg single		Cmax	1100 nM

Repeated from above:
SMILES	target or system	assay	test system	conditions	scale	endpoint	value
CCN1CCN(Cc2ccc(NC(=O)c3ccc(C)c(Oc4ncnc5cc(OC)c(OC)cc45)c3)cc2C(F)(F)F)CC1	MAP4K2 (Homo sapiens, UniProt Q12851)	KINOMEscan competition binding		1.0 µM		residual probe binding	0.3%
Fc1cc(-c2ccc3c(n2)[nH]c2ccncc23)ccn1 [isotope labelled]	Microtubule-associated protein tau, paired helical filaments (MAPT, Homo sapiens, UniProt P10636)	radioligand binding	PHF tau brain homogenate	72.89 nM	higher = more binding	specific binding	20.1 a.u.
